Experimental data collected from several papers.
Numbered parts are unrelated; each lists some results of a single study.
Sequence of UniProt P42680 (whole entry, looked up): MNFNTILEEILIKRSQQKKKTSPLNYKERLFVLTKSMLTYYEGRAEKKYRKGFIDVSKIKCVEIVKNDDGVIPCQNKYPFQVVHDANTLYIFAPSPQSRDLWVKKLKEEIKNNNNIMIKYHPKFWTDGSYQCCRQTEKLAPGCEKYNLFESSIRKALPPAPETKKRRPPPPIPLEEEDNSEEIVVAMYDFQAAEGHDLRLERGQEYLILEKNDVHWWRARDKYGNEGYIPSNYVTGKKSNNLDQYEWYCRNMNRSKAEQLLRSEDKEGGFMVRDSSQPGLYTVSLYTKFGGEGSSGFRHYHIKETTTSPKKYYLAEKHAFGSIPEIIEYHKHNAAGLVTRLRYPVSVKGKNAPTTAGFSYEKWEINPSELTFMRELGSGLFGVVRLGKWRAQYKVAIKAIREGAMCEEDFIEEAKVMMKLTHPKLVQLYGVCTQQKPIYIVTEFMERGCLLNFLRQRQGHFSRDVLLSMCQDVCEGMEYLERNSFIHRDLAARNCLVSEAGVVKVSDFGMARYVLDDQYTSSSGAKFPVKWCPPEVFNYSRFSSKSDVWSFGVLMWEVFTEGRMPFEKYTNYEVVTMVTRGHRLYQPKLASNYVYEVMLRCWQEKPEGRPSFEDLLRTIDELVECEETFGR
Sequence of UniProt P08913 (whole entry, looked up): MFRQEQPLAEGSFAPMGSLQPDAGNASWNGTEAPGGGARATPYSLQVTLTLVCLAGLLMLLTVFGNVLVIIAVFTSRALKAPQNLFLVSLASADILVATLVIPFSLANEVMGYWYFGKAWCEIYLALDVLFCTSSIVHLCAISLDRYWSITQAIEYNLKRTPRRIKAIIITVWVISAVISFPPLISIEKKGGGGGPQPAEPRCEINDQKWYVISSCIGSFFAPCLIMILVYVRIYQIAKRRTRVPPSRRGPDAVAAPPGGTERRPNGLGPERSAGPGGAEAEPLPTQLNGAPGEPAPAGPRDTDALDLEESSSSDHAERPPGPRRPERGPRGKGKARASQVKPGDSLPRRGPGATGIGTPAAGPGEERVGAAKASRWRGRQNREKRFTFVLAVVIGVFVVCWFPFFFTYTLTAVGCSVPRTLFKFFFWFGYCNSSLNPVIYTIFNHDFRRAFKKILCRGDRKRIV
Sequence of UniProt P28221 (whole entry, looked up): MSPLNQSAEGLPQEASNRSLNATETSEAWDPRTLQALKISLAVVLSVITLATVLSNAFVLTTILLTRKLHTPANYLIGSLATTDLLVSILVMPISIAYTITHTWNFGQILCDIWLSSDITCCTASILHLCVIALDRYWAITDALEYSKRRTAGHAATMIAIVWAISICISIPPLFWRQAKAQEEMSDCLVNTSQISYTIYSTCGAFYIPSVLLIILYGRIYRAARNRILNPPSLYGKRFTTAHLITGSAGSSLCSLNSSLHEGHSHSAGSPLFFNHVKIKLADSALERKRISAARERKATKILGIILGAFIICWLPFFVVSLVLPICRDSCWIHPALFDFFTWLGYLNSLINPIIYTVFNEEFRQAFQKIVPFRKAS
Sequence of UniProt Q9Y5N1 (whole entry, looked up): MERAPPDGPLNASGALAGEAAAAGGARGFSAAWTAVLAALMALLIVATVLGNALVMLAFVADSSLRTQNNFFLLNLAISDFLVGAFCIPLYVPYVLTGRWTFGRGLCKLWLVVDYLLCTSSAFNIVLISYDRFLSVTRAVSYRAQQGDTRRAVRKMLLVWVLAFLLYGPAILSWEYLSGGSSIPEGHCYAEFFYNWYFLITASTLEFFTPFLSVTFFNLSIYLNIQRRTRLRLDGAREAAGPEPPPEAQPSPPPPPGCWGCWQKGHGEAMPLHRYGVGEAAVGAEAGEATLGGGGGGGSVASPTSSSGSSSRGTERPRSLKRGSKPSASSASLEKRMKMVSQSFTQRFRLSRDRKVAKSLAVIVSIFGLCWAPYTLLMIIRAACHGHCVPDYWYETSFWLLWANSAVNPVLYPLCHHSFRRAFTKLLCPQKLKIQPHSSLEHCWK
Sequence of UniProt P07550 (whole entry, looked up): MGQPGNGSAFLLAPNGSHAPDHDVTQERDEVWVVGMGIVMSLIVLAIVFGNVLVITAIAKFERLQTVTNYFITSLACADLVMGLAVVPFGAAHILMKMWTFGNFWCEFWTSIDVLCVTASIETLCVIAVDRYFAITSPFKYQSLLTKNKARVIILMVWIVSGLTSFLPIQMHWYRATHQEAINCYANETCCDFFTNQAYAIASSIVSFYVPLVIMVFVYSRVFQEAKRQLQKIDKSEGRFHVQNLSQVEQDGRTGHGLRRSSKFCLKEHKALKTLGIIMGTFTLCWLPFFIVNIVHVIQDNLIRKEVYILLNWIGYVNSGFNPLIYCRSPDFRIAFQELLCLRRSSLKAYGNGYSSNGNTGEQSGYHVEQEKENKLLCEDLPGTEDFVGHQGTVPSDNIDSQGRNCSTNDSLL
Sequence of UniProt P42685 (whole entry, looked up): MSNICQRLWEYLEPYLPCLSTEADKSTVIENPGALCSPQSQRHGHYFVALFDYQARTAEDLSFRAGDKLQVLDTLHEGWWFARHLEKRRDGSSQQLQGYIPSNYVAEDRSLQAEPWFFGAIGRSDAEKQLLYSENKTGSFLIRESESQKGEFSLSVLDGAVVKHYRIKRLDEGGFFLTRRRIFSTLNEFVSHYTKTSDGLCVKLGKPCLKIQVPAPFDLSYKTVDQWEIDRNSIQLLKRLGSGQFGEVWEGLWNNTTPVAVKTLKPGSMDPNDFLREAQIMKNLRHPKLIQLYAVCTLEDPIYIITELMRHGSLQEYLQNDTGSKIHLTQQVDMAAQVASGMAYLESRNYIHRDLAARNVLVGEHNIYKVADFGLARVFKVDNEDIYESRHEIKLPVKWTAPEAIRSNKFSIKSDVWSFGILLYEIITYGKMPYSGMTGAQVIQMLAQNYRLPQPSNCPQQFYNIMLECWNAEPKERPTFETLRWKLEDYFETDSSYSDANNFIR
Sequence of UniProt P41595 (whole entry, looked up): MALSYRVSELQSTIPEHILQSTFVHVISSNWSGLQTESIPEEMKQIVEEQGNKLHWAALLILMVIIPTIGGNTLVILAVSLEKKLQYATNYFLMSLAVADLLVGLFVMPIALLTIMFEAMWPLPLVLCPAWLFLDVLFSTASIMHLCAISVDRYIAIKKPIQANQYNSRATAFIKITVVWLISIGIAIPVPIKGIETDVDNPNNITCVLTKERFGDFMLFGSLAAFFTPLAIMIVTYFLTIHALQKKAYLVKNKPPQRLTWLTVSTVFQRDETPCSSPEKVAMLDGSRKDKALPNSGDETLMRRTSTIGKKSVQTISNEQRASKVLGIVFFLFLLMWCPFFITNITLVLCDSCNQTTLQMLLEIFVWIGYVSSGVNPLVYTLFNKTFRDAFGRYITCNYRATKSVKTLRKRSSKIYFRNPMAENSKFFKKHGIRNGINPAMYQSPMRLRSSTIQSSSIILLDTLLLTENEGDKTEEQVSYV
Sequence of UniProt P21917 (whole entry, looked up): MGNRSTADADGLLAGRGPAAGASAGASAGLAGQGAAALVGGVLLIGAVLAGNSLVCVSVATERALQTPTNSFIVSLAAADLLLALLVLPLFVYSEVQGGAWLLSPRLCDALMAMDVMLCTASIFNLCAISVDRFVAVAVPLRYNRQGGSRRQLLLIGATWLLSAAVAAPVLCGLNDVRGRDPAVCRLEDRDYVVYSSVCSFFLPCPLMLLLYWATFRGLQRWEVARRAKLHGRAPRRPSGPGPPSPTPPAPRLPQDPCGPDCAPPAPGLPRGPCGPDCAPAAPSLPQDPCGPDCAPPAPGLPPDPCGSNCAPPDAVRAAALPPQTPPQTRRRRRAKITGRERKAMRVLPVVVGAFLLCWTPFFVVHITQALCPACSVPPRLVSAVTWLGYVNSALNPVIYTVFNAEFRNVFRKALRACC
Sequence of UniProt P08172 (whole entry, looked up): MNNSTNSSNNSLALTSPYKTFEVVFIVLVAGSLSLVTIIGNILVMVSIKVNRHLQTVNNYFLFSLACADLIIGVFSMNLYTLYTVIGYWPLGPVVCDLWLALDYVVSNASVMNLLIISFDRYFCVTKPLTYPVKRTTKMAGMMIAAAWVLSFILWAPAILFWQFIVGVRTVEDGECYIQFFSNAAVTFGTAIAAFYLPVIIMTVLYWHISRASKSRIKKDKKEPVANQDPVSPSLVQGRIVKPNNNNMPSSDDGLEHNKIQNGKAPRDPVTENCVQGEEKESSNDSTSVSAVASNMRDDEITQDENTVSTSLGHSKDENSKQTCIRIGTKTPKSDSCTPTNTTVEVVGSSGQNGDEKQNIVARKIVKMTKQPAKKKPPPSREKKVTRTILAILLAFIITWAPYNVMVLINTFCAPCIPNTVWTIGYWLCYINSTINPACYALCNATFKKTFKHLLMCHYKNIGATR
Sequence of UniProt Q5BJF2 (whole entry, looked up): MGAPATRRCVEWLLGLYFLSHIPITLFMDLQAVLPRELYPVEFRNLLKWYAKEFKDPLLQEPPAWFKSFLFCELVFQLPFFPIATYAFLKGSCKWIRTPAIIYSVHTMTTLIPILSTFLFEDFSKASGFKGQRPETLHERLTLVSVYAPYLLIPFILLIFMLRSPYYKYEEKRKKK

Series 1 — action: inhibitor; tested at: 10 µM; reference: control
Target: Diamine acetyltransferase 1 (Homo sapiens, UniProt P21673)
Target sequence (P21673 1-171): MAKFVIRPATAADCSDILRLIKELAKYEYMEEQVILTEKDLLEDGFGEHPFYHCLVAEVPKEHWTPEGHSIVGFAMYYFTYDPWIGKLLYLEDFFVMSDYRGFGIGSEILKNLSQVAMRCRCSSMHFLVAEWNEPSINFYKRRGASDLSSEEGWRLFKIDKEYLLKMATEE
| SMILES | remaining activity |
| --- | --- |
| CCCCCCCC/C=C\CCCCCCCC(=O)O[C@H](COC(=O)CCCCCCCCCCCCCCC)COP(=O)([O-])OCC[N+](C)(C)C | 104% |
| COC(=O)C1=CO[C@@H](O[C@@H]2O[C@H](CO)[C@@H](O)[C@H](O)[C@H]2O)[C@@H]2C(CO)=CC[C@H]12 | 84.3% |
| COc1ccc(-c2cc(=O)c3c(O)c(OC)c(O)c(OC)c3o2)cc1 | 104% |
| O=c1c(O)c(-c2ccccc2)oc2ccccc12 | 82.7% |
| Oc1ccc2c(c1)OCO2 | 98.3% |
| C=C1CCOC1=O | 108% |
| C[C@H](CC[C@@H](O[C@@H]1O[C@H](CO[C@@H]2O[C@H](CO)[C@@H](O)[C@H](O)[C@H]2O)[C@@H](O)[C@H](O)[C@H]1O[C@@H]1O[C@H](CO)[C@@H](O)[C@H](O)[C@H]1O)C(C)(C)O)[C@H]1CC[C@@]2(C)[C@@H]3CC=C4[C@@H](CC[C@H](O[C@@H]5O[C@H](CO[C@@H]6O[C@H](CO)[C@@H](O)[C@H](O)[C@H]6O)[C@@H](O)[C@H](O)[C@H]5O)C4(C)C)[C@]3(C)C(=O)C[C@]12C | 96.3% |
| C[C@@H]1CC[C@@]2(OC1)O[C@H]1C[C@H]3[C@@H]4CC=C5C[C@@H](O[C@@H]6O[C@H](CO)[C@@H](O[C@@H]7O[C@@H](CO)[C@H](O)[C@H]7O)[C@H](O)[C@H]6O[C@@H]6O[C@@H](C)[C@H](O)[C@@H](O)[C@H]6O)CC[C@]5(C)[C@H]4CC[C@]3(C)[C@H]1[C@@H]2C | 96.1% |
| CC[C@H](/C=C/[C@@H](C)[C@H]1CC[C@H]2[C@@H]3CC=C4C[C@@H](O)CC[C@]4(C)[C@H]3CC[C@]12C)C(C)C | 89.4% |
| CN(CC(=O)O)C(=N)N | 104% |
| O=C1c2cccc(O)c2C(=O)c2c(O)cc(CO)cc21 | 97.6% |
| CC(=O)OC/C=C/c1ccccc1 | 91% |
| CC/C=C\CCO | 109% |
| CC(=O)O[C@H]1CC[C@]2(C)[C@H]3CC=C4[C@@H]5CC(C)(C)CC[C@]5(C(=O)O)CC[C@@]4(C)[C@]3(C)CC[C@H]2C1(C)C | 75% |
| COc1ccc(-c2coc3cc(O)ccc3c2=O)cc1O | 130% |
| CCCCCCCC/C=C/CCCCCCCC(=O)O | 85.6% |
| Oc1ccc(/C=C/c2cc(O)cc(O)c2)cc1 | 104% |
| CC1(C)[C@H]2CC[C@]1(C)[C@H](O)C2 | 96.1% |
| COc1cc(-c2oc3cc(O)cc(O)c3c(=O)c2O[C@@H]2O[C@H](CO[C@@H]3O[C@@H](C)[C@H](O)[C@@H](O)[C@H]3O)[C@@H](O)[C@H](O)[C@H]2O)ccc1O | 99.9% |

Series 2 — tested at: 10 µM
Compound: CC(C)(C)OC(=O)N1CCCC1CNC1CCC(c2cc(F)ccc2F)(S(=O)(=O)c2ccc(Cl)cc2)CC1 (stereo not drawn)
| target | observed | technique | inhibition [%] |
| --- | --- | --- | --- |
| DRD3 (Homo sapiens, UniProt P35462) | cell-free assay | – | 86.1 |
| ADRB1 (Homo sapiens, UniProt P08588) | cell-free assay | – | 3.61 |
| HRH2 (Homo sapiens, UniProt P25021) | cell-free assay | – | 53.1 |
| DRD2 (Homo sapiens, UniProt P14416) | cell-free assay | – | 83 |
| ADRA1B (Homo sapiens, UniProt P35368) | cell-free assay | – | 41 |
| HRH3 (Homo sapiens, UniProt Q9Y5N1) | cell-free assay | – | 26.9 |
| ADRA2B (Homo sapiens, UniProt P18089) | cell-free assay | – | 77.4 |
| CHRM4 (Homo sapiens, UniProt P08173) | cell-free assay | – | 25.6 |
| TMEM97 (Homo sapiens, UniProt Q5BJF2) | cell-free assay | – | 83.4 |
| HTR1D (Homo sapiens, UniProt P28221) | ligand displacement | radioligand | 61.4 |
| CHRM5 (Homo sapiens, UniProt P08912) | cell-free assay | – | 26.5 |
| DRD1 (Homo sapiens, UniProt P21728) | cell-free assay | – | 13.8 |
| HTR2B (Homo sapiens, UniProt P41595) | cell-free assay | – | 97.2 |
| CHRM2 (Homo sapiens, UniProt P08172) | cell-free assay | – | 9.4 |
| HRH4 (Homo sapiens, UniProt Q9H3N8) | cell-free assay | – | -17.1 |
| ADRA2C (Homo sapiens, UniProt P18825) | cell-free assay | – | 81.4 |
| ADRA2A (Homo sapiens, UniProt P08913) | cell-free assay | – | 82.3 |
| HTR6 (Homo sapiens, UniProt P50406) | cell-free assay | – | 37.1 |
| ADRB3 (Homo sapiens, UniProt P13945) | cell-free assay | – | 25.6 |
| ADRB2 (Homo sapiens, UniProt P07550) | cell-free assay | – | -11.1 |
| DRD4 (Homo sapiens, UniProt P21917) | cell-free assay | – | 20.4 |

Series 3 — observed: enzyme activity; action: inhibitor; tested at: 0.5 µM; reference: control
Target: Serine/threonine-protein kinase pim-1 (PIM1, Homo sapiens, UniProt P11309)
Sequence of UniProt P11309 (whole entry, looked up): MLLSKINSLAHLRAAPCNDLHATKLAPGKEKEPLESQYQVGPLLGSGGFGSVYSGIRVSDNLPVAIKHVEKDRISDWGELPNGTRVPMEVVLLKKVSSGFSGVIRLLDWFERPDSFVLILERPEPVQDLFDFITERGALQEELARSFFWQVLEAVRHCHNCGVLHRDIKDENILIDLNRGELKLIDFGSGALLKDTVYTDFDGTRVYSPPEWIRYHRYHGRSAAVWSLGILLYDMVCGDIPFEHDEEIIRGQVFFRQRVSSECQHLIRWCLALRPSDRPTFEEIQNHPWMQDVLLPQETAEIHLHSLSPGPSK
| Structure (SMILES) | remaining activity [%] |
| --- | --- |
| c1ccc(-c2n[nH]c3c2oc2ccccc23)cc1 | 83.3 |
| Cc1cc(Nc2cc(N3CCN(C)CC3)nc(Sc3ccc(NC(=O)C4CC4)cc3)n2)[nH]n1 | 98.6 |
| CCCNC(=O)Nc1ccc(Oc2ncnc3cc(OC)c(OC)cc23)cc1Cl | 102 |
| O=C1Nc2ccccc2/C1=C\c1c(Cl)[nH]c2ccccc12 | 88.5 |
| O=C1NC(=O)c2c1c1c3ccccc3[nH]c1n1cncc21 | 1.43 |
| O=C1Nc2ccc(Br)cc2/C1=C/c1cc2c([nH]1)CCCC2 | 101 |
| CCCCc1c(-c2ccc(OC)cc2)[nH]c2nccnc12 | 97 |
| Oc1cccc(-c2nc(N3CCOCC3)c3oc4ncccc4c3n2)c1 | 91.2 |
| O=Nc1c(-c2c(O)[nH]c3cc(Br)ccc23)[nH]c2ccccc12 | 96.1 |
| O=C1Cc2c([nH]c3ccc(Br)cc23)-c2ccccc2N1 | 96.8 |
| N#Cc1cnc2cnc(NCc3cccnc3)cc2c1Nc1ccc(F)c(Cl)c1 | 92.7 |
| COc1ccc(COc2ccc(Cc3cnc(N)nc3N)cc2OC)cc1 | 104 |
| O=C(c1cc2cc(O)ccc2[nH]1)c1cc2cc(O)ccc2[nH]1 | 76.1 |
| Cc1ccc(S(=O)(=O)/C=C/C#N)cc1 | 101 |
| CN1CCN(c2ccc3nc(-c4c(N)c5c(F)cccc5[nH]c4=O)[nH]c3c2)CC1 | 99.2 |
| COc1cccc(-c2cc(=O)c3ccccc3o2)c1N | 93.9 |
| CN(C)S(=O)(=O)c1ccc2c(c1)/C(=C/c1cc3c([nH]1)CCCC3)C(=O)N2 | 101 |
| c1ccc2c(-c3ccncc3)c[nH]c2c1 | 93.5 |
| COc1ccc2c(c1)c(C1=C(c3c[nH]c4ccccc34)C(=O)NC1=O)cn2CCCN(C)C | 11.6 |
| O=C1NC(=O)c2c1c1c3ccccc3[nH]c1c1[nH]c3cc(Br)ccc3c21 | 8.84 |

Series 4 — observed: enzyme activity; action: inhibitor; tested at: 1 µM
Compound: CC(C)S(=O)(=O)c1ccc2nccc(Nc3ccc4sc(C5CCCC5)nc4c3)c2c1
| target | activity vs control |
| --- | --- |
| NEK4 (Homo sapiens, UniProt P51957) | 95% |
| NEK5 (Homo sapiens, UniProt Q6P3R8) | 92.5% |
| FRK (Homo sapiens, UniProt P42685) | 72% |
| MAP2K6 (Homo sapiens, UniProt P52564) | 92% |
| EIF2AK3 (Homo sapiens, UniProt Q9NZJ5) | 99% |
| TEC (Homo sapiens, UniProt P42680) | 100% |
| RIPK1 (Homo sapiens, UniProt Q13546) | 87% |
| LTK (Homo sapiens, UniProt P29376) | 104% |
| IKBKB (Homo sapiens, UniProt O14920) | 115% |
